Experimental data gathered from unrelated publications.
Numbered parts are unrelated; each lists some results of a single study. Changes are numbered by the printed parent chain.

Sample 1
Target: Hepatocyte nuclear factor 3-beta, forkhead domain (FOXA2, Homo sapiens, UniProt Q9Y261, residues 142-269)
Technique: protein-binding microarray
Molecule type: double-stranded DNA, one strand shown
Sample: in vitro
Concentration: not given
Setting: k-mer, scored over probes, only values ≥0.25
Direction: higher = stronger binding
Target sequence (chain): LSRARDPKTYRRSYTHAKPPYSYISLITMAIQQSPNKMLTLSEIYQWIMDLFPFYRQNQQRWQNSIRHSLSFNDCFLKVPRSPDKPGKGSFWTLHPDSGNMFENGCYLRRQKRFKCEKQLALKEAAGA
| Sequence | E-score |
| --- | --- |
| CTTCAACA | 0.271 |
| AATTATAG | 0.256 |
| ATATAGAA | 0.361 |
| AACACGTA | 0.271 |
| TAACCATA | 0.259 |
| TACGCATA | 0.292 |
| AATGATGA | 0.301 |
| AATTACTC | 0.263 |
| GATAACAA | 0.261 |
| ATACATTA | 0.281 |
| TATACGAA | 0.276 |
| AATTAGTA | 0.282 |
| ATAGATAC | 0.333 |
| GTGTGTGA | 0.259 |
| AAATAGTA | 0.324 |
| TCAACACA | 0.343 |
| TGAGTACA | 0.284 |
| ATCATAAT | 0.33 |
| ACTCAATA | 0.274 |
| AACAAAAT | 0.306 |
| AATAATTA | 0.317 |
| AGTAAACA | 0.392 |
| ACATCTAC | 0.312 |
| ATGACAAA | 0.265 |
| ATAAGACG | 0.307 |

Sample 2
Target: RNA binding protein fox-1 homolog 2, RRM domain, GST-SBP tag (RBFOX2, Homo sapiens, UniProt O43251-10, residues 100-194)
Technique: RNA Bind-n-Seq
Molecule type: RNA
Sample: in vitro
Concentration: 365 nM
Setting: natural RNA segment, single round, ends assumed
Relative to: no-protein control
Direction: higher = stronger binding
Target sequence (chain): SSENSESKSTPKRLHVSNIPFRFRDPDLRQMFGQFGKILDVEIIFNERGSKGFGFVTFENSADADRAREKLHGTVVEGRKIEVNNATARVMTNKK
| Sequence | RBNS enrichment (R) |
| --- | --- |
| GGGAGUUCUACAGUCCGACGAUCCAGCUCCAAGCCGAACACACGCUGUGAGCCACCACAGCCCAGGAAGCAGGAAAACCAAUCGUCUUCUUGACAGGGUGGCAUUUGGCCUUGAACAAAAUCAGGUCCCCUGGUGGAAUUCUCGGGUGCCAA | 0.238 |
| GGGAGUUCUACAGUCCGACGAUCCCUCUUCUCAAGGCCAUGUAAGUUGCCCAUCUCUACCUGGCUGUGGACAAAAGGUUAUCUGCUCUUGGCCAUCUGGUGGUGGUGGCGGCCCAGAGUCUGAAGAAAUGGCAUGGAAUUCUCGGGUGCCAA | 0.913 |
| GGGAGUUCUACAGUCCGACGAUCGACGAUAUACCAGCCCUCACCCAGGUUUUAAAAAAGCACUGGUAGGCAUAGAAUAGGUGCUCAGUAUAUGGUCAGUAAAUGUUCUAUUGAUUAUCAAUCAGUGAAAAAAGUGGAAUUCUCGGGUGCCAA | 0.295 |
| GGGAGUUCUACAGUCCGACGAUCGUAGCCCUUUUGAUCAAAUUGGUCUUCACCUGCUUGCCUCUGAGGCUCCAUCCUUCUACUUCAACCCUCAGAGGAGCAGACAGGUGCAAAUAAACAACAGACUUUAUUAAUGGAAUUCUCGGGUGCCAA | 0.487 |
| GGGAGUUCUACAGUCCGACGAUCCCAGCGUGUGUACACAUAAACCUUAACAAGACUACAAGUAUAUUCCAGAAGGAAAUCAUUUUAGUUAUGAACUAAAUAAUAAAAAUUAGAACUUCAAAUGCGAUGGUCUUUGGAAUUCUCGGGUGCCAA | 0.346 |
| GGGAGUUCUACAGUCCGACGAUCUGUUCUGUGCCUGCCUGCGGUGAUGUAGCCAGAAGCACGUACUCAGGUCAUCAAGCCGAGAGGGCGUCAAAGAGGAAGCCUGGGCUGGGAUCCUUAGGCUCAGCUGUCUGUGGAAUUCUCGGGUGCCAA | 0.724 |
| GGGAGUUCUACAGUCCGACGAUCGUUAGAAUGAUUCCAUCACUUAUACAUUGUUUAAAAUGCUAAUAAAGUAACUUGCUUUGUAAGAAUUCAUUAGAGUGGACUUUUGUUAUCUCCAUUGUGCAUUUGAUAAAUGGAAUUCUCGGGUGCCAA | 0.501 |
| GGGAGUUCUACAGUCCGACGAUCCUGGCCAGGGGCCUGGUGUAGACACAGUAGAAGACAGUCAACUAUGGGCGCAUUCUGUCUGGAGCUCCCAGAAGGAGCUGUGUGCUGCUGGAGAGGAGGCUAAUUGUUGGUGGAAUUCUCGGGUGCCAA | 0.698 |
| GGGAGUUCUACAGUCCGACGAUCCAUCAGCACCUAGACGUACCGCACGGGAAGGAGGAGCAGAUCUGCUGACCUCAGGGCCUGACAGUGUGGGACAGGCUCUUCUUUCCCAAAAUUAGGGAGCUCUUGACAGAUGGAAUUCUCGGGUGCCAA | 0.638 |
| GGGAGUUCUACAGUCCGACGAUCAUGGAAGAACAAACAAAAAGGACUUUCCAUGUAGCCUUCCUCCAUGUGGCCUAGUGAAACAUGGAUCUUGUUUAAAAGGCAUCUGAUUUUAUGCAGACACGUGUCUGAAAUGGAAUUCUCGGGUGCCAA | 0.293 |
| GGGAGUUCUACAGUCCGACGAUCUUUUCCCUUCCAAAAAUUGUCAACUGACUGAGGACAAAGAGAAAGCACCUCCCAGAAAGCUGUGAGCGUGGUUUGGUUCAGAACUCCAGCACCCUGUGCCAGGCACUGACUGGAAUUCUCGGGUGCCAA | 0.352 |
| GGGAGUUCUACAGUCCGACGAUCAAGCUGUGUCGUGUUCCCUGUGGAAAUGAGUUGAUGUGUGCCAGUGCUGAGCACCUGGUAUUGAGGUACAGAGGAGGGCUCCGCCUGCAGGCACUGUGGCCGCUGAGCUGUGGAAUUCUCGGGUGCCAA | 1.65 |

Sample 3
Target: Interferon regulatory factor 7, full length, phosphomimetic (IRF7, Homo sapiens, UniProt Q92985, residues 1-503, S471D/S472D/S475D/S476D/S477D/S483D/S484D/S487D)
Sequence of UniProt Q92985 (whole entry, unmodified, looked up): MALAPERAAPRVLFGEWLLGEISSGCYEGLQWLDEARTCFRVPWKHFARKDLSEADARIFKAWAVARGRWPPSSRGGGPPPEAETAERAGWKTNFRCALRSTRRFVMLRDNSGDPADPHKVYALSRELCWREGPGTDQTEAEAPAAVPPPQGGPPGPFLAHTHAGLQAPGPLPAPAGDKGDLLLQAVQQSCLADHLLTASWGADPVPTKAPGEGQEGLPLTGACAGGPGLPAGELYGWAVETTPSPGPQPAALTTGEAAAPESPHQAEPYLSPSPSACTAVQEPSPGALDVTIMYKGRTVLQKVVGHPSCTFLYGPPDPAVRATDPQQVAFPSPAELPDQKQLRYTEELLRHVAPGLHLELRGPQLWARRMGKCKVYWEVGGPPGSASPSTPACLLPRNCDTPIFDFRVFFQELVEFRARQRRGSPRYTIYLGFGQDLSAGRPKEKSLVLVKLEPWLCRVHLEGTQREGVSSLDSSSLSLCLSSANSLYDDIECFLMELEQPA
Technique: protein-binding microarray
Molecule type: double-stranded DNA, one strand shown
Sample: in vitro
Concentration: 2200 nM top
Setting: 60-bp whole probe
With: salmon DNA 0.4 mg/ml
Relative to: random background probes
Direction: higher = stronger binding
Shared flanks, not repeated: GCCTAGCAC … GTCTTGATTCGCTTGACGCTGCTG
| Sequence | fitted relative affinity [z-score] |
| --- | --- |
| GACGGACTAGACTATCGGGACGTGCTA | -0.564 |
| GACGGTTTGGACTATCGGGACGTGCTA | 0.379 |
| GACGATTCCAGGTTCGAGACGTGCTAG | 0.785 |
| TCAGCTCACGCTTTGGAACTGTGCTAG | 0.593 |
| GACGGAATCGACTTTCGGGACGTGCTA | 3.28 |
| TCAGGTTTCTGGTTTATACTGTGCTAG | 3.39 |
| TTAGAACTGGGGTATCGATAAGTGCTA | -0.273 |
| AGCTCCCTTTCTCTCTGTGAGTGCTAG | 1.87 |
| GTAGGTATCGGTCTCGGTTAGTGCTAG | 0.753 |
| TTAGGTATCGGACTGGGTGAGTGCTAG | -0.131 |
| GACGATCTCAGTCTTGAGACGTGCTAG | 0.0817 |
| TCATTTTTTAATTGAGAACTGTGCTAG | 0.74 |
| TTAGGTATCGGTTCCGGTTAGTGCTAG | 2.09 |
| GACTATTTCGGGACTGGAGACGTGCTA | 1.06 |
| CAGTTTTCCTATGTCATTTAGTGCTAG | 2.96 |
| GACGATCTCAGACTGGACACGTGCTAG | -0.175 |

Sample 4
Target: Histone acetyltransferase KAT6A, winged helix 1, GST fusion (KAT6A, Homo sapiens, UniProt Q92794, residues 1-85)
Technique: protein binding microarray
Molecule type: double-stranded DNA, one strand shown
Sample: in vitro
Concentration: not given
Setting: 8-mer, flanks averaged, mean of 2 arrays, mostly near background
Relative to: not given
Direction: higher = stronger binding
Construct (chain): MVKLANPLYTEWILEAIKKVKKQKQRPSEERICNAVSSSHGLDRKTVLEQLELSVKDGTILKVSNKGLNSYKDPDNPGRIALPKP
| Sequence | E-score |
| --- | --- |
| AACACGAG | -0.21 |
| ATTACGTC | -0.0459 |
| CGAAGCAG | 0.055 |
| ATTCTACC | -0.171 |
| AACGGGGA | 0.106 |
| CTCTCATA | -0.243 |
| CCCGTCCA | 0.255 |
| GGCTGCCA | 0.0137 |
| CTATCTCC | -0.139 |
| CATCTCCG | -0.0654 |
| ATTCTCGG | 0.0746 |
| CTTGTAGC | -0.0621 |
| TATCCGGA | -0.0214 |
| ACCGCAGG | 0.152 |
| GCGCGGAC | 0.37 |
| ATGCCGAG | 0.251 |
| GTTGCTAA | -0.119 |
| CAAATACG | -0.0638 |
| GTTCGTCA | -0.0178 |
| ACCCGTAA | 0.334 |

Sample 5
Target: CCNB1, cyclin fold, Cln2 fusion (human)
Technique: yeast growth competition, sequencing
Sample: yeast
Setting: strong parent motif
Relative to: not given
Direction: higher = stronger binding
Starting sequence: PKN2 docking peptide (human); VSAVQKLDFSDTM; partner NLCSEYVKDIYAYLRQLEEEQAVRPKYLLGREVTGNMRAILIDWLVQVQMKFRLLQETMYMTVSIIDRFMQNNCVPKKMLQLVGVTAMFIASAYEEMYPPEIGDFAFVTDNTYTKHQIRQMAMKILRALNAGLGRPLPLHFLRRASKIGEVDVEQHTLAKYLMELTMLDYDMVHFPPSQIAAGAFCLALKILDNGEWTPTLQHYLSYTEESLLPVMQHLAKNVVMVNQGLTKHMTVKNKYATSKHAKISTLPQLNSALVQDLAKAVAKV
| Change | normalised enrichment score |
| --- | --- |
| VSAVQKLWFSDTM [D8W] | 1.4 |
| VSLVQKLDFSDTM [A3L] | 1.68 |
| VSAVQKLDFSMTM [D11M] | 1.02 |
| DSAVQKLDFSDTM [V1D] | 2.17 |
| VIAVQKLDFSDTM [S2I] | 1.35 |
| VSAVQCLDFSDTM [K6C] | 1.6 |
| VSWVQKLDFSDTM [A3W] | 1.66 |
| QSAVQKLDFSDTM [V1Q] | 2.55 |
| VSAVQKLNFSDTM [D8N] | 1.4 |
| VEAVQKLDFSDTM [S2E] | 1.39 |
| VSAVQKMDFSDTM [L7M] | 0.174 |
| VSAVQKLDFGDTM [S10G] | 2.41 |
| VSAVQKYDFSDTM [L7Y] | 0.957 |
| VSAVQKLDFSDTV [M13V] | 1.86 |
| VSAVQKLIFSDTM [D8I] | 1.36 |
| VSAHQKLDFSDTM [V4H] | -0.0481 |
| VKAVQKLDFSDTM [S2K] | 1.27 |
| VWAVQKLDFSDTM [S2W] | 1.84 |
| VSAVQKLDPSDTM [F9P] | -0.127 |
| VSAVQKLDFSRTM [D11R] | 0.61 |
| VSAVQSLDFSDTM [K6S] | 1.36 |
| VSAVQKLDFSNTM [D11N] | 2.15 |
| VSAVQKLDFSATM [D11A] | 1.06 |
| VSAVQKNDFSDTM [L7N] | 0.311 |
| VSAVQKLDFSWTM [D11W] | 1.27 |

A few entries again (sample 3):
| Sequence | fitted relative affinity [z-score] |
| --- | --- |
| GACGATTCCAGGTTCGAGACGTGCTAG | 0.785 |
| TCAGCTCACGCTTTGGAACTGTGCTAG | 0.593 |
| GACGGAATCGACTTTCGGGACGTGCTA | 3.28 |
| TCAGGTTTCTGGTTTATACTGTGCTAG | 3.39 |
| TTAGAACTGGGGTATCGATAAGTGCTA | -0.273 |
| AGCTCCCTTTCTCTCTGTGAGTGCTAG | 1.87 |
| GTAGGTATCGGTCTCGGTTAGTGCTAG | 0.753 |
